Results from different studies.
Lines come from different studies, so protocols differ. Several values in a cell are separate wells, animals, samples, runs or records.

With `Cn1cncc1C1=CN(c2ncnc3[nH]cnc23)CCS1` the CC50 was over 200000 nM (NCI-H522; lung cancer).
`CC(C)C[C@H](NC(=O)[C@H](CC(C)C)NC(=O)[C@H](CCCNC(=N)N)NC(=O)[C@H](Cc1c[nH]cn1)NC(=O)[C@H](CC(C)C)NC(=O)[C@H](CCCNC(=N)N)NC(=O)[C@H](CCCNC(=N)N)NC(=O)[C@H](Cc1c[nH]c2ccccc12)NC(=O)[C@H](CC(C)C)NC(=O)[C@H](CCCNC(=N)N)NC(=O)[C@H](Cc1c[nH]c2ccccc12)NC(=O)[C@H](CC(C)C)NC(=O)[C@H](CC(C)C)NC(=O)[C@H](Cc1c[nH]cn1)NC(=O)[C@H](Cc1c[nH]c2ccccc12)NC(=O)[C@H](CC(C)C)NC(=O)[C@@H](N)CCCNC(=N)N)C(=O)N[C@@H](CCCNC(=N)N)C(=O)N[C@@H](CS)C(N)=O` gave an EC50 of over 100000 nM (human red blood cells; pH 7.4; relative to: Triton X-100).
For `C[C@@H]1O[C@@H](O[C@@H]2C=C3CC[C@@H]4[C@H](CC[C@]5(C)[C@@H](c6ccc(=O)oc6)CC[C@]45O)[C@@]3(C)CC2)[C@H](O)[C@H](O)[C@H]1O`, the activity score was 14.1 (human iPSC-derived cardiomyocytes; MyBP-C/MYH ratio, plate-normalised SD score; concentration not given, primary screen; direction not given).
The GI50 of `CN[C@@H]1C[C@H]2O[C@@](C)([C@@H]1OC)n1c3ccccc3c3c4c(c5c6ccccc6n2c5c31)C(=O)NC4` is reported as 12 nM (U2OS overexpressing wild-type DDR1; cell growth).
`COc1cc(CCC[P+](c2ccccc2)(c2ccccc2)c2ccccc2)c(OC)c2c1OCO2.[I-]` has an LC50 of -4.32 log M (NCI-H23; SRB).
With `COc1ccc2c(c1)[nH]c1c(C)nccc12` the methylation reduction was 0.44% (DU-145; bisulfite pyrosequencing, refers to: RASSF1A promoter CpG site 13; concentration not given; relative to: vehicle).
`COc1c(CCC[P+](c2ccccc2)(c2ccccc2)c2ccccc2)cc2c(c1OC)OCO2.[I-]` has an LC50 of over -4 log M (NCI-H522; SRB).
With `Cc1sc2c(c1C)C(c1ccc(Cl)cc1)=N[C@@H](CC(N)=O)c1nnc(C)n1-2` the viability was 21% (HBL-1; 0.5 µM, 120 h).
`O=C1CCP(=S)(c2ccccc2)CC1` — result for viability: “no effect” (SW480 and SW-620; trypan blue; concentration not given, 72 h, compound at IC50; relative to: control).
Under “pathway fold enrichment”, `Nc1ncnc2c1ncn2[C@@H]1O[C@@H]2COP(=O)(O)O[C@H]3[C@@H](O)[C@H](n4cnc5c(=O)[nH]cnc54)O[C@@H]3COP(=O)(O)O[C@H]2[C@H]1O` is recorded as 7.67 (HFF-1; RNA sequencing Reactome analysis, refers to: Reactome R-HSA-9701193 defective HRR (PALB2 loss); together with: West Nile virus infection; relative to: West Nile virus infected cells, upregulated pathway).
`CC(C)C[C@H](NC(=O)[C@H](CCc1ccccc1)NC(=O)CN1CCOCC1)C(=O)N[C@@H](Cc1ccccc1)C(=O)N[C@@H](CC(C)C)C(=O)[C@@]1(C)CO1` gave a fold change of -6010 (patient tumour conditionally reprogrammed cells; RNA-seq, refers to: TUBB4A mRNA; human; concentration not given; relative to: DMSO).
For `CN1CCN(C2(CNC3CCN(c4cccc(-c5cc6cc(F)ccc6[nH]5)c4)CC3)CCC2)CC1`, the GI50 was 1720 nM (U-251).
The IC50 of `CN1CCN(S(=O)(=O)c2cc([N+](=O)[O-])ccc2N(CCOS(C)(=O)=O)CCOS(C)(=O)=O)CC1` is reported as 12.7 nM (sample E T-ALL PDX cells; cell viability; ex vivo).
Under “spheroid area increase”, `Oc1ccc(C2(c3ccc(O)cc3)c3ccccc3-c3ccccc32)cc1` is recorded as 126% (HepG2 spheroids; planimetry; 10 µM, 0 to 24 h; relative to: mean area of 72 h spheroids).
For `Cc1nn(-c2nc3c(F)cc(F)cc3s2)c(O)c1C(c1ccc(C(F)(F)F)cc1)c1c(C)nn(-c2nc3c(F)cc(F)cc3s2)c1O`, the viability was 7.49% and 7.47% and 7.86% and 13.7% and 7.71% (RAW-ISG; CCK-8; 100 µM).
`CC(C)N1CCC(NC2CCN(c3cccc(-c4cc5cc(F)ccc5[nH]4)c3)CC2)CC1` has a GI50 of 1710 nM (NCI-H23).

Repeated from above:
`COc1cc(CCC[P+](c2ccccc2)(c2ccccc2)c2ccccc2)c(OC)c2c1OCO2.[I-]` has an LC50 of -4.32 log M (NCI-H23; SRB).
With `COc1ccc2c(c1)[nH]c1c(C)nccc12` the methylation reduction was 0.44% (DU-145; bisulfite pyrosequencing, refers to: RASSF1A promoter CpG site 13; concentration not given; relative to: vehicle).
